Measurements pooled from the literature.
Each line is one published result; not all experiments were run side by side.
Medium: plasma

SMILES = COC(=O)C1=CNC=C(C(=O)OC)C1c1ccc(F)c(C(F)(F)F)c1; host = male Sprague-Dawley rat; route = oral; dose = 50 mg/kg; Cmax = 764 ng/mL
SMILES = CCC(CC)n1c(Cc2cccs2)nc2cc(C(=O)N[C@@H](CC(=O)O)c3ccccc3)ccc21; host = Sprague-Dawley rat; route = intravenous; dose = 1 mg/kg; Cmax = 1160 ng/mL
SMILES = CNC(=O)C1CCCN(C(=O)C2CC3CCC2N3C(=O)[C@@H]2C[C@@H](O)CN2C(=O)NCc2cccc(Cl)c2F)C1 (mixture of isomers); host = rat; route = oral; dose = 8 mg/kg; Cmax = 1.49 ng/mL
SMILES = O=C(C1CCN(c2nnnn2-c2ccccc2)CC1)N1CCCc2ccccc21; host = male Sprague-Dawley rat; route = oral; dose = 5 mg/kg; Cmax = 10.2 ng/mL
SMILES = Cc1cc2c(cc1O)C=C1C=CC(=O)C(C)(C)[C@H]1CC2; host = male Sprague-Dawley rat; route = oral; dose = 20 mg/kg; Cmax = 10.3 ng/mL
SMILES = C/C(N)=N/C(=N\S(=O)(=O)c1ccc(C(F)(F)F)cc1)N1C[C@H](c2ccccc2)C(c2ccc(Cl)cc2)=N1; host = male Sprague-Dawley rat; route = oral; dose = 30 mg/kg; Cmax = 3120 ng/mL
SMILES = CNc1cc(N)c(C(N)=O)cn1; host = male Wistar rat; route = oral; dose = 30 mg/kg; Cmax = 30 µM
SMILES = COc1cc(OC)c2c(=O)cc(-c3cc(C)c(OCCCN4CCN(C)CC4)c(C)c3)oc2c1; host = male Sprague-Dawley rat; route = oral; dose = 20 mg/kg; setting = single dose; Cmax = 796 ng/mL
SMILES = CC(=Nc1ccc(N)cc1)N(C)C; host = male Sprague-Dawley rat; route = oral; dose = 200 mg/kg; Cmax = 8620 ng/mL
SMILES = CCOP(=O)(CC(=O)Nc1ccc(S(=O)(=O)N(CC(N)=O)c2ccc(N(CC(N)=O)S(=O)(=O)c3ccc(OC)cc3)c3ccccc23)cc1)OCC; host = male Wistar rat; route = oral; dose = 28 mg/kg; setting = single dose; Cmax = 217 ng/mL
SMILES = COc1cc(-c2cc(=O)c3ccc(OCCCn4c(Cl)nc5ccccc54)cc3o2)cc(OC)c1OC; host = male Sprague-Dawley rat; route = intravenous; dose = 10 mg/kg; Cmax = 220 ng/mL
SMILES = O=C(O)c1c(O)cc(O[C@@H]2O[C@H](CO)[C@@H](O)[C@H](O)[C@H]2O)cc1/C=C/c1ccccc1; host = male Sprague-Dawley rat; route = oral; dose = 5 mg/kg; Cmax = 114 ng/mL
SMILES = OC1(C(F)(F)F)CCN(c2nc(Nc3ccnc(C(F)(F)F)c3)nc(-c3cccc(C(F)(F)F)n3)n2)C1 (stereo not drawn); host = Sprague-Dawley rat; route = oral; dose = 20 mg/kg; Cmax = 1230 ng/mL
SMILES = CCC(CC)n1c(Cc2ccco2)nc2cc(C(=O)N[C@@H](CC(=O)O)c3ccccc3)ccc21; host = Sprague-Dawley rat; route = intravenous; dose = 1 mg/kg; Cmax = 964 ng/mL
SMILES = C=C(NC(=O)c1csc(-c2nc3c(cc2O)-c2nc(cs2)C(=O)NC(C(C)O)C(=O)NC(=C(C)OC)c2nc(cs2)C(=O)NC2c4nc(cs4)C(=O)NC(COC(=O)c4c5c6c(cccc6n4O)COC(=O)C(OC4CC(C)(O)C(N(C)C)C(C)O4)C2OC5)c2nc-3cs2)n1)C(N)=O (stereo not drawn); host = male Sprague-Dawley rat; route = intravenous; dose = 6 mg/kg; setting = single dose, infusion; Cmax = 3540 ng/mL
SMILES = CN1CCC[C@@H]1C(=O)N[C@@H](Cc1ccc(-c2ccccc2)cc1)B(O)O; host = male Sprague-Dawley rat; route = oral; dose = 1 mg/kg; Cmax = 0.505 µM
SMILES = CNc1cc(C)c(C(N)=O)cn1; host = male Wistar rat; route = oral; dose = 30 mg/kg; Cmax = ~100 µM
SMILES = COC1C(c2ccc(Cl)c(Cc3ccc(OC4CCOC4)cc3)c2)OC(CO)C(O)C1O (stereo not drawn); host = Sprague-Dawley rat; route = oral; dose = 5 mg/kg; Cmax = 3140 ng/mL

Excerpt of the above:
SMILES = COc1cc(OC)c2c(=O)cc(-c3cc(C)c(OCCCN4CCN(C)CC4)c(C)c3)oc2c1; host = male Sprague-Dawley rat; route = oral; dose = 20 mg/kg; setting = single dose; Cmax = 796 ng/mL
SMILES = CC(=Nc1ccc(N)cc1)N(C)C; host = male Sprague-Dawley rat; route = oral; dose = 200 mg/kg; Cmax = 8620 ng/mL
